Results of several laboratories.
Lines come from different studies, so protocols differ. “And” joins repeats or separate records; there may be more than shown. ± marks the error that the study gave. Converted amounts (≈) assume the structure as drawn.
UniProt Q14315, sequence (whole entry, looked up): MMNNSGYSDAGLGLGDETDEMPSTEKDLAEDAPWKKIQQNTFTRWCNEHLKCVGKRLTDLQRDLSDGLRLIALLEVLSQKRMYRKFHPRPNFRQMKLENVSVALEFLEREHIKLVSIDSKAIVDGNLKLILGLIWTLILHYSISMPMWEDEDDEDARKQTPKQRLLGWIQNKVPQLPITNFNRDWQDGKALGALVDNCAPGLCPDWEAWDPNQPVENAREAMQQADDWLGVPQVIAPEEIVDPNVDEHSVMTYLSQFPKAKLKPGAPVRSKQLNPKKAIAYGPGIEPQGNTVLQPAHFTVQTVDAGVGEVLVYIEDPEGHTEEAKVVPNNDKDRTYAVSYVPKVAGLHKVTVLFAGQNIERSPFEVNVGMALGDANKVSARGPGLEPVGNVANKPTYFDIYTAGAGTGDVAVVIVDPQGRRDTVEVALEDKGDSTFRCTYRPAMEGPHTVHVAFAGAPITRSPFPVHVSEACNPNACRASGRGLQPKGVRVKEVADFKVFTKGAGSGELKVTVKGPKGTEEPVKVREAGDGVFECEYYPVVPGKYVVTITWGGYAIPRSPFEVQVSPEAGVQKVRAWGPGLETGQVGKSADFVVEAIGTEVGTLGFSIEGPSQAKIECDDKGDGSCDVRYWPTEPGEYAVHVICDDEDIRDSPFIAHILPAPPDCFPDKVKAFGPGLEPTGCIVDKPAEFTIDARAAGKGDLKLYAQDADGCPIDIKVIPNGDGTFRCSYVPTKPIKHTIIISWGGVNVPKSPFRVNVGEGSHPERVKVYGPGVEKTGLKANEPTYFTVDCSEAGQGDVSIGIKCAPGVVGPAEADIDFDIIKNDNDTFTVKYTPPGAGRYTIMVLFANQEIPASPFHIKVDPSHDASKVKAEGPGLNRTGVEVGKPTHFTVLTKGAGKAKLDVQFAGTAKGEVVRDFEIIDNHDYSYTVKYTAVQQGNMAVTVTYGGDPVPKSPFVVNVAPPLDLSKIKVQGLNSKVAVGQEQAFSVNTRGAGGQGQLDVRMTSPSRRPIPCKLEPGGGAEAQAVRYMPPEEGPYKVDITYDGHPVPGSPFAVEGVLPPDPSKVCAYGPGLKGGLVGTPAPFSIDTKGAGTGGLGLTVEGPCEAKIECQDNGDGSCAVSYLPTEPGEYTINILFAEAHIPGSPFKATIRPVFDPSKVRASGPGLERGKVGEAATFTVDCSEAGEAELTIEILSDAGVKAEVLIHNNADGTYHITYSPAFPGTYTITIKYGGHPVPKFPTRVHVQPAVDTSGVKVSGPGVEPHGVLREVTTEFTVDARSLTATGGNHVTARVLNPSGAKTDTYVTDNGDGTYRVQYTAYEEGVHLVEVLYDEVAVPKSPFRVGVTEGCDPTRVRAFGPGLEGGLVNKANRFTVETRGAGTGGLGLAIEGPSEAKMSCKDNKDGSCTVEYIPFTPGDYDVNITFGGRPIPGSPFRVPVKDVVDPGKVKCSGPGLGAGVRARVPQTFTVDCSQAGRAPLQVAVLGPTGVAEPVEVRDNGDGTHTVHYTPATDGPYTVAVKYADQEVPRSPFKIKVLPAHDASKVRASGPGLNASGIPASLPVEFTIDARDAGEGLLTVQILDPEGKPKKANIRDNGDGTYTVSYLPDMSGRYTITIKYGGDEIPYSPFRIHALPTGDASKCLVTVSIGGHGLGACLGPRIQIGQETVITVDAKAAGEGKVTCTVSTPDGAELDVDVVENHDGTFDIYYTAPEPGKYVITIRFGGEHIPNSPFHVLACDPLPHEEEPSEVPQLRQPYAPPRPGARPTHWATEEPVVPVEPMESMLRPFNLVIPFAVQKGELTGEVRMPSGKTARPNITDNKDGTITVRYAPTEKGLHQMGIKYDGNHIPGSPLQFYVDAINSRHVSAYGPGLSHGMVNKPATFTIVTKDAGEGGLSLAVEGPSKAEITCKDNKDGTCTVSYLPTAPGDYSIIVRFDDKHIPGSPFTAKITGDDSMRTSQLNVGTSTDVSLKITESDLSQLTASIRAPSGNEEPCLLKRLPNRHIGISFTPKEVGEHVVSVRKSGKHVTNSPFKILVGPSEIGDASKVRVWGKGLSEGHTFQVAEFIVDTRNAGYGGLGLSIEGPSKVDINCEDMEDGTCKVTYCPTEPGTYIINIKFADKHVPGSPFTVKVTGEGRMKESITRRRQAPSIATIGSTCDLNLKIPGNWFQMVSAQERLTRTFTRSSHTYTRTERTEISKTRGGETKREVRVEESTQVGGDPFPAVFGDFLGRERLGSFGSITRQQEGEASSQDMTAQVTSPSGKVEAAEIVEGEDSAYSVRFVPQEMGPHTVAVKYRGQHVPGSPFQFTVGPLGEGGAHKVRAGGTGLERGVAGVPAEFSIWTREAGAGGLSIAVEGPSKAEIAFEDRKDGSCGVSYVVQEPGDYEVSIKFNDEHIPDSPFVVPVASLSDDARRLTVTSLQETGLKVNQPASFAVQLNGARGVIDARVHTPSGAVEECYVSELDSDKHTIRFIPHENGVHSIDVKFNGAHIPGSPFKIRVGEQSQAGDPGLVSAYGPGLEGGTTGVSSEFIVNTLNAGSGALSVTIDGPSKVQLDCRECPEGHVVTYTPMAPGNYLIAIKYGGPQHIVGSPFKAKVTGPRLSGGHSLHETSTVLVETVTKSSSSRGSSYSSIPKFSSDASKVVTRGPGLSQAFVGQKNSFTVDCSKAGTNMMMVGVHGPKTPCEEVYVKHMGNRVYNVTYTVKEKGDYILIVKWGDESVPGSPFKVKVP
UniProt Q8NFV4, sequence (whole entry, looked up): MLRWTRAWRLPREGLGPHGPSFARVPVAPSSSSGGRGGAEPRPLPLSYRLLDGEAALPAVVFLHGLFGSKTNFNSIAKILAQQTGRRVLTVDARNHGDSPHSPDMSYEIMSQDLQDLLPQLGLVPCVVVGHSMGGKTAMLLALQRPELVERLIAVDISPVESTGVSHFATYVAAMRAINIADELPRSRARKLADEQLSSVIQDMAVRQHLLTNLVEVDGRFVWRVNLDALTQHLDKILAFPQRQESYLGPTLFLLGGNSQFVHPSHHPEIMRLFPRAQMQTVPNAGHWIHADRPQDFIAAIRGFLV
UniProt Q96CH1, sequence (whole entry, looked up): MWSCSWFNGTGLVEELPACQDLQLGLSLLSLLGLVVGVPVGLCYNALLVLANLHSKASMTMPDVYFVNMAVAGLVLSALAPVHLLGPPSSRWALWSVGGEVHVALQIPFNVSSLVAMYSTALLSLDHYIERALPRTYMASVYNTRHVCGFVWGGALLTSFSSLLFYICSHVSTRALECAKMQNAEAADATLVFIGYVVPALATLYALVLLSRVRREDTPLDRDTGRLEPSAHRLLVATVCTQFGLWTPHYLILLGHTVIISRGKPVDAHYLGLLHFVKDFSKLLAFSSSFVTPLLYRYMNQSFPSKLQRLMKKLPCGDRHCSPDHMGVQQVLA
UniProt P30988, sequence (whole entry, looked up): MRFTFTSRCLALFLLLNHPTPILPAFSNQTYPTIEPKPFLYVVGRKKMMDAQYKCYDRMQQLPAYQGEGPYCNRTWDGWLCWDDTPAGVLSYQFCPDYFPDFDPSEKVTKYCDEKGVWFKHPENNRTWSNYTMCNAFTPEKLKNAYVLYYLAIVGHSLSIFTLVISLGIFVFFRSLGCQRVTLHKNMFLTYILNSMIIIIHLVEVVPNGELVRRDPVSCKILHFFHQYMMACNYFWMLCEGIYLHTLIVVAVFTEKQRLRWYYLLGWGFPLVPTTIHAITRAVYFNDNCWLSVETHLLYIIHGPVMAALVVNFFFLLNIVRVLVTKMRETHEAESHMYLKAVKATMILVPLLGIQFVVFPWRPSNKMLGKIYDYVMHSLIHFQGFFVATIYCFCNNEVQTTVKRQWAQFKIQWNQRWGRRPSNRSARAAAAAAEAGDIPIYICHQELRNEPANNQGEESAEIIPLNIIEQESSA

For COc1cc(CCC[P+](c2ccccc2)(c2ccccc2)c2ccccc2)c(OC)c2c1OCO2.[I-], the LC50 was greater than -4 log M (OVCAR-4; SRB).
CCCNCCc1c[nH]c2cccc(O)c12.CCCNCCc1c[nH]c2cccc(O)c12.O=C(O)/C=C/C(=O)O: “body temperature change” -0.1 ± 0.2 °C (C57BL/6J mice; subcutaneous, 3 mg/kg; baseline: pre-session baseline).
For C[C@H]1O[C@@H](O[C@H]2CC[C@@]3(C)[C@@H](CC[C@]4(C)[C@@H]3C=C[C@]35OC[C@@]6(CCC(C)(C)C[C@H]63)[C@@H](O)C[C@]54C)[C@]2(C)CO)[C@H](O)[C@@H](O[C@@H]2O[C@H](CO)[C@@H](O)[C@H](O)[C@H]2O)[C@H]1O, the mRNA level was 0.51 and 0.89 and 0.95 and 0.74 (refers to: PGC-1α; ethanol-fed mice, hepatic SIRT1 knockdown (AAV8-TBG-SIRT1), liver; dose not given, high dose, unit not given; baseline: AAV8-TBG-Null ethanol group).
For NS(=O)(=O)c1cc(C(=O)O)c(NCc2ccco2)cc1Cl, the maximum inhibition was 11.8% (human coronavirus OC43; virus-induced cell killing; MRC-5; screen).
CC[C@H](C)[C@H](NC(=O)[C@H](Cc1ccccc1)NC(=O)[C@H](CCC(=O)O)NC(=O)[C@H](CCCNC(=N)N)NC(=O)[C@H](C)NC(=O)[C@H](C)NC(=O)[C@H](CCC(N)=O)NC(=O)[C@H](CCC(=O)O)NC(=O)[C@H](CCC(=O)O)NC(=O)[C@H](CC(C)C)NC(=O)[C@H](Cc1ccc(O)cc1)NC(=O)[C@H](CO)NC(=O)[C@H](CO)NC(=O)[C@@H](NC(=O)[C@H](CC(=O)O)NC(=O)[C@H](CO)NC(=O)[C@@H](NC(=O)[C@H](Cc1ccccc1)NC(=O)[C@@H](NC(=O)CNC(=O)[C@H](CCC(=O)O)NC(=O)[C@H](C)NC(=O)CCc1c[nH]cn1)[C@@H](C)O)[C@@H](C)O)C(C)C)C(=O)N[C@@H](C)C(=O)N[C@@H](Cc1c[nH]c2ccccc12)C(=O)N[C@@H](CC(C)C)C(=O)N[C@H](C(=O)N[C@@H](CCCNC(=N)N)C(=O)NCC(=O)N[C@@H](CCCNC(=N)N)C(=O)N[C@@H](CCCCNC(=O)COCCOCCNC(=O)COCCOCCNC(=O)CC[C@H](NC(=O)CCCCCCCCCCCCCCCCC(=O)O)C(=O)O)C(=O)NCC(=O)NCC(=O)N[C@@H](CO)C(=O)N[C@@H](CCCCNc1c(NCCCCCN(O)C(=O)CCC(=O)NCCCCCN(O)C(=O)CCC(=O)NCCCCCN(O)C(C)=O)c(=O)c1=O)C(=O)O)C(C)C [zirconium-89 labelled] has a tissue uptake of 0.37 %ID/g (gamma counting; rat, stomach-duodenum; subcutaneous, 3 nmol/kg, 24 h).
For CC(C)[C@@H]1NC(=O)[C@H](Cc2ccccc2)NC(=O)[C@@H]2NC(=O)[C@H](Cc3ccccc3)NC(=O)[C@@H]3CCCN3C(=O)CNC(=O)[C@H](Cc3ccccc3)NC(=O)[C@@H]3CNCCCC[C@@H](C(=O)O)NC(=O)[C@@H]4NC(=O)[C@H](CC(N)=O)NC(=O)CNC(=O)[C@H]([C@@H](O)C(=O)O)NC(=O)[C@H](CSC[C@@H](NC(=O)[C@H](CCC(N)=O)NC(=O)[C@H](CCCCNC(=O)c5ccc(NN)nc5)NC(=O)[C@@H](N)CS[C@H]4C)C(=O)N[C@@H](CS[C@H]2C)C(=O)N3)NC1=O [technetium-99m labelled], the tissue uptake was 2.1 ± 0.22 %ID/g (rat, saline control, liver; intravenous, 2 h after tracer, tracer 24 h after reperfusion).
COc1cc(Nc2ncc(F)c(Nc3ccc4c(n3)NC(=O)C(C)(C)O4)n2)cc(OC)c1OC has an IC50 of greater than 10 µM (Calcitonin receptor (CALCR, Homo sapiens, UniProt P30988)).
CC[C@@]1(O)C(=O)OCc2c1cc1n(c2=O)Cc2cc3c(CN(C)C)c(O)ccc3nc2-1 gave a maximum inhibition of 0% (human coronavirus OC43; virus-induced cell killing; MRC-5; maximum over 10 doses).
For COc1ccc(N2C(=O)N(c3c(C)cccc3Cl)Cc3cnc(Nc4ccc(C5CCN(C)CC5)cc4OC)nc32)nc1, the inhibition was 2.38% (DYRK1B (Homo sapiens, UniProt Q9Y463); kinase activity; 0.5 µM).
CCCCNCCc1c[nH]c2cccc(O)c12.O=C(O)/C=C/C(=O)O: “body temperature change” -0.2 ± 0.1 °C (C57BL/6J mice; subcutaneous, 1 mg/kg; baseline: pre-session baseline).
O=C(N[C@H](CO)[C@H](O)c1ccc([N+](=O)[O-])cc1)C(Cl)Cl has an MIC of 2 mg/L (≈ 6.19 µM) (Salmonella enterica; 20 h, pH 7).
With CCCCN1C[C@H](O)[C@@H](O)[C@H](O)[C@H]1CO the maximum inhibition was 22.4% (human coronavirus OC43; virus-induced cell killing; MRC-5; screen).
For C#CCN(C)[C@H](C)Cc1ccccc1, “striatal dopamine content” read 5.86 ng/mg tissue and 4.96 ng/mg tissue and 7.19 ng/mg tissue and 6.51 ng/mg tissue and 6.33 ng/mg tissue and 5.93 ng/mg tissue and 5.68 ng/mg tissue (HPLC-ECD; MPTP mouse model, striatum; 10 mg/kg).
Under “body temperature change”, C=CCNCCc1c[nH]c2cccc(O)c12.C=CCNCCc1c[nH]c2cccc(O)c12.O=C(O)/C=C/C(=O)O is recorded as -0.3 ± 0.1 °C (C57BL/6J mice; subcutaneous, 3 mg/kg; baseline: pre-session baseline).
With C[C@@H](O)[C@@H](CO)NC(=O)[C@@H](CCCNC(=N)N)NC(=O)[C@@H]1CCCN1C(=O)[C@@H]1CSSC[C@H](NC(=O)[C@H](Cc2ccccc2)NC(=O)CN2CCN(CC(=O)O)CCN(CC(=O)O)CCN(CC(=O)O)CC2)C(=O)N[C@@H](Cc2ccc(O)cc2)C(=O)N[C@@H](Cc2ccccc2)C(=O)N[C@@H](CCC(N)=O)C(=O)N[C@@H](CC(N)=O)C(=O)N1 [gallium-68 labelled] the tissue uptake was 1.61 %ID/g (healthy Wistar rat, blood; intravenous, 8 MBq, 30 min, individual animals).
For CN1CCN(S(=O)(=O)c2cc([N+](=O)[O-])ccc2N(CCOS(C)(=O)=O)CCOS(C)(=O)=O)CC1, the event-free survival was 59.7 days (NSG mice, sample BH PDX; intraperitoneal, 25 mg/kg weekly x3).
O=C(c1ccc(OCCN2CCCCC2)cc1)c1c(-c2ccc(O)cc2)sc2cc(O)ccc12 has a maximum inhibition of 1.26% (human coronavirus OC43; virus-induced cell killing; MRC-5; maximum over 10 doses).
C/C=C(/C)C(=O)O[C@H]1C(C)=C2[C@H]([C@@H]1OC(=O)CCCCCCC)[C@@](C)(OC(C)=O)C[C@H](OC(=O)CCC)[C@@]1(O)[C@H]2OC(=O)[C@@]1(C)O — result for “normalized enrichment score”: 1.36 (HEK-293T; RNA-seq GSEA, refers to: Hallmark fatty acid metabolism; 500 nM, 6 h; direction not given).
CN1CC[C@@H](c2c(O)cc(O)c3c(=O)cc(-c4ccc(C(F)(F)F)cc4Cl)oc23)[C@@H]1CO — result for “patients with adverse event”: 33.3% (refers to: Constipation; B-cell malignancies; oral, 150 mg, intermittent dosing).
With C[C@H]1CN(c2n[nH]c3nc(N[C@H]4CC[C@H](NS(=O)(=O)CCC(F)(F)F)CC4)ncc23)CCO1 the remaining binding was 1.08 (Filamin-C (FLNC, Homo sapiens, UniProt Q14315); Kinobeads competition, refers to: FLNC; 0.8 µM, unit not given; baseline: vehicle).
With Cn1c(=O)ccc2ccc(F)c(CCNC[C@H]3CN(c4cnc5c(n4)NC(=O)CO5)C(=O)O3)c21 the MIC50 was less than 0.015 mg/L (Fusobacterium spp.).
The serum LDL-C of CCCCC1(CCCC)CN(c2ccccc2)c2cc(SC)c(OCC(=O)N[C@@H](C(=O)NCC(=O)O)c3ccccc3)cc2S(=O)(=O)C1 is reported as 72.5 mg/dL (refers to: LDL cholesterol; human, serum; 20 mg once daily, day 8).
Under “decreased appetite incidence”, CO[C@H]1C[C@@H]2CC[C@@H](C)[C@@](O)(O2)C(=O)C(=O)N2CCCC[C@H]2C(=O)O[C@H]([C@H](C)C[C@@H]2CC[C@@H](OC(=O)NCCOCCOCCOCCOCCOCCOCCOCCOCCC(=O)N3CCc4cc(Cn5nc(-c6ccc7oc(N)nc7c6)c6c(N)ncnc65)ccc4C3)[C@H](OC)C2)C[C@@H](O)[C@H](C)/C=C(\C)[C@@H](O)[C@@H](OC)C(=O)[C@H](C)C[C@H](C)/C=C/C=C/C=C/1C is recorded as 31.3% (patients with advanced solid tumours; intravenous, 8 mg weekly, any grade).
Under “pathway fold enrichment”, Nc1ncnc2c1ncn2[C@@H]1O[C@@H]2COP(=O)(O)O[C@H]3[C@@H](O)[C@H](n4cnc5c(=O)[nH]cnc54)O[C@@H]3COP(=O)(O)O[C@H]2[C@H]1O is recorded as 5.46 (HFF-1; RNA sequencing, refers to: Interleukin-4 and -13 signaling; upregulated pathway; baseline: Zika virus alone).
For O=C(c1ccc(Cl)cc1)N1CCN2C(=O)N(OC(=O)N3CCOc4ccccc43)C(=O)C2C1 (stereo not drawn), the median ratio was 1.08 (ABHD11 (Homo sapiens, UniProt Q8NFV4); enzyme activity, inhibitor, MS-based ABPP; SW-620 in situ; 10 µM, 2 h, 37 °C; baseline: compound over DMSO, lower = stronger inhibition).
CC(C)(C)NCCc1c[nH]c2cccc(O)c12.CC(C)(C)NCCc1c[nH]c2cccc(O)c12.O=C(O)/C=C/C(=O)O: “body temperature change” 0.1 ± 0.2 °C (C57BL/6J mice; subcutaneous, 0.3 mg/kg; baseline: pre-session baseline).
O=C(/C=C/c1cccnc1)NCCCCC1CCN(C(=O)c2ccccc2)CC1 gave a maximum inhibition of 53.9% (human coronavirus OC43; virus-induced cell killing; MRC-5; screen).
Oc1ccc2c3c1O[C@H]1[C@@H](O)CC[C@@]4(O)[C@@H](C2)N(CC2CCC2)CC[C@]314 — result for “log2 fold change”: 0.2 (G-protein coupled receptor 146 (GPR146, Homo sapiens, UniProt Q96CH1); β-arrestin recruitment, TANGO luminescence, refers to: GPR146; concentration not given; baseline: basal luminescence).
COc1c(CCC[P+](c2ccccc2)(c2ccccc2)c2ccccc2)cc2c(c1OC)OCO2.[I-] gave a TGI of -4.09 log M (OVCAR-5; SRB).
The tissue uptake of CC(C)C[C@@H]1NC(=O)[C@H](CC(C)C)NC(=O)[C@H](Cc2c[nH]c3ccccc23)NC(=O)[C@H](CO)NC(=O)[C@H](Cc2c[nH]c3ccccc23)NC(=O)[C@@H]2CCCN2C(=O)[C@H](CC(C)C)NC(=O)[C@H](Cc2c[nH]cn2)NC(=O)[C@@H]2CCCN2C(=O)[C@H](CC(N)=O)NC(=O)[C@H](C)NC(=O)[C@H](Cc2ccc(O)cc2)NC(=O)[C@H](CS)NC(=O)[C@H](CCCCNC(=O)CN2CCN(CC(=O)O)CCN(CC(=O)O)CCN(CC(=O)O)CC2)NC1=O [lutetium-177 labelled] is reported as 2.45 %ID (Balb/c mouse, female, 4T1 tumour, liver; intravenous, 3.7 MBq, 72 h).
For Fc1cc(-c2cccc3ncc(-c4cnn(C5CCNCC5)c4)nc23)cc(F)c1CN1CCOCC1, the maximum inhibition was 16.5% (human coronavirus OC43; virus-induced cell killing; MRC-5; screen).
For CC[C@H](C)[C@@H]1NC(=O)[C@@H]2CCCN2C(=O)[C@H](CC(C)C)NC(=O)[C@H](CC(C)C)NC(=O)CNC(=O)[C@@H](NC(=O)[C@@H](NC(=O)[C@H](CC(=O)O)NC(=O)CNC(=O)[C@@H](NC(=O)[C@H](C)NC(=O)CNC(=O)[C@H](CCCCN)NC(=O)[C@H](CC(C)C)NC(=O)[C@H](CC(C)C)NC(=O)[C@H](CCCCN)NC(=O)CNC(=O)[C@@H](NC(=O)[C@@H](N)CC(C)C)C(C)C)C(C)C)C(C)C)CSSC[C@@H](C(=O)O)NC1=O, “log2 fold change” read -2.98 (RNA-seq, refers to: Calhm6; mouse, traumatic brain injury model, frontal cortex and hippocampus; dose not given; baseline: TBI alone).
C=CC(=O)Nc1cccc(Oc2nc(Nc3ccc(N4CCN(C)CC4)cc3OC)ncc2Cl)c1 has a maximum inhibition of 0% (human coronavirus OC43; virus-induced cell killing; MRC-5; maximum over 10 doses).
COc1cc2c(Oc3ccc4[nH]c(C)cc4c3F)ccnc2cc1OCC1(N)CC1 — result for “grade 3 Proteinuria”: 0% (paediatric recurrent refractory sarcoma; 10 mg).
For O=C(Nc1c[nH]nc1-c1nc2ccc(CN3CCOCC3)cc2[nH]1)NC1CC1, the maximum inhibition was 0% (human coronavirus OC43; virus-induced cell killing; MRC-5; maximum over 10 doses).
For COc1ccc(CN2CCNCC2)c(OC)c1OC, the inhibition was 26.3% (Nedd8-cullin1 interaction; neddylation, AlphaScreen; 100 µM).
OC(Cn1cncn1)(Cn1cncn1)c1ccc(F)cc1F gave an OD600 of 1.03 and 1 and 1.02 (Saccharomyces cerevisiae; cell growth; Pdr5 deleted, empty vector; 2^-2.322 µg/mL).
CCNCCc1c[nH]c2cccc(O)c12.CCNCCc1c[nH]c2cccc(O)c12.O=C(O)CCC(=O)O — result for “body temperature change”: -0.2 ± 0.2 °C (C57BL/6J mice; subcutaneous, 0.3 mg/kg; baseline: pre-session).
With Cn1cncc1C1=CN(c2ncnc3[nH]cnc23)CCS1 the TGI was 85.1 µM (Malme-3M; melanoma cell line).

For quick reference, copied from above:
For C[C@H]1O[C@@H](O[C@H]2CC[C@@]3(C)[C@@H](CC[C@]4(C)[C@@H]3C=C[C@]35OC[C@@]6(CCC(C)(C)C[C@H]63)[C@@H](O)C[C@]54C)[C@]2(C)CO)[C@H](O)[C@@H](O[C@@H]2O[C@H](CO)[C@@H](O)[C@H](O)[C@H]2O)[C@H]1O, the mRNA level was 0.51 and 0.89 and 0.95 and 0.74 (refers to: PGC-1α; ethanol-fed mice, hepatic SIRT1 knockdown (AAV8-TBG-SIRT1), liver; dose not given, high dose, unit not given; baseline: AAV8-TBG-Null ethanol group).
Under “body temperature change”, C=CCNCCc1c[nH]c2cccc(O)c12.C=CCNCCc1c[nH]c2cccc(O)c12.O=C(O)/C=C/C(=O)O is recorded as -0.3 ± 0.1 °C (C57BL/6J mice; subcutaneous, 3 mg/kg; baseline: pre-session baseline).
COc1c(CCC[P+](c2ccccc2)(c2ccccc2)c2ccccc2)cc2c(c1OC)OCO2.[I-] gave a TGI of -4.09 log M (OVCAR-5; SRB).
CN1CC[C@@H](c2c(O)cc(O)c3c(=O)cc(-c4ccc(C(F)(F)F)cc4Cl)oc23)[C@@H]1CO — result for “patients with adverse event”: 33.3% (refers to: Constipation; B-cell malignancies; oral, 150 mg, intermittent dosing).
